Results from different studies.
Lines come from different studies, so protocols differ. “And” joins repeats or separate records; there may be more than shown. Numbers after ± are the reported error.

Compound = CC(=O)NCCCC[C@@H]1NC(=O)[C@H](Cc2c[nH]c3c(C)cccc23)NC(=O)[C@H]([C@@H](C)O)NC(=O)[C@H](CC(N)=O)NC(=O)[C@@H](NC(C)=O)C(C)(C)SSC(C)(C)[C@@H](C(=O)N[C@@H](Cc2ccc(OCCN)cc2)C(=O)N[C@@H](Cc2ccc3ccccc3c2)C(=O)NC2(C(=O)N[C@@H](CCC(=O)O)C(=O)N[C@@H](CC(N)=O)C(=O)N[C@@H](Cc3cccnc3)C(=O)N(C)CC(N)=O)CCOCC2)NC1=O; assay = equilibrium dialysis; test system = cynomolgus monkey, plasma; conditions = 0.1 µM; endpoint = plasma protein binding; value = 43.7 ± 1.1%
Compound = C=Cc1c(C)c2cc3nc(c(CC(=O)O)c4[nH]c(cc5nc(cc1[nH]2)C(C)=C5CC)c(C)c4C(=O)O)[C@@H](CCC(=O)NCCCC[C@H](NC(C)=O)C(=O)N[C@@H](Cc1ccccc1)C(=O)N[C@@H](Cc1ccccc1)C(=O)N[C@H](C(=O)N[C@@H](CC(C)C)C(=O)N[C@@H](CCCCN)C(=O)N[C@@H](CO)C(=O)NCC(=O)N[C@@H](CCC(N)=O)C(=O)NCC(=O)N[C@@H](Cc1ccc(O)cc1)C(=O)N[C@@H](CCCNC(=N)N)C(=O)N[C@@H](Cc1c[nH]c2ccccc12)C(=O)N[C@@H](CC(=O)O)C(=O)N[C@@H](CO)C(=O)N[C@@H](Cc1ccc(O)cc1)C(=O)N[C@@H](CCCNC(=N)N)C(=O)N[C@@H](Cc1c[nH]c2ccccc12)C(=O)N[C@@H](Cc1c[nH]cn1)C(=O)N1CCC[C@H]1C(=O)N[C@@H](CO)C(=O)N[C@@H](CS)C(=O)N[C@@H](C)C(=O)N[C@@H](CS)C(=O)NCC(=O)NCC(=O)N[C@@H](CO)C(=O)N[C@@H](CCCCN)C(N)=O)C(C)C)[C@@H]3C; test system = mouse, 4T1 breast tumour, serum; conditions = concentration not given, 21 days after single dose; endpoint = TNF level; value = 40.7 pg/mL and 41.2 pg/mL and 36.6 pg/mL
Compound = CC[C@H](C)[C@H](NC(=O)[C@H](CCCN)NC(=O)[C@H](CCCNC(=N)N)NC(=O)[C@@H]1CCCN1C(=O)[C@@H]1CCCN1C(=O)[C@H](CCCNC(=N)N)NC(=O)[C@@H]1CCCN1C(=O)[C@H](CCCNC(=N)N)NC(=O)[C@@H]1CCCN1C(=O)[C@H](CC(C)C)NC(=O)[C@H](Cc1ccc(O)cc1)NC(=O)[C@@H]1CCCN1C(=O)[C@@H]1CCCN1C(=O)[C@H](CCCCN)NC(=O)[C@H](CC(=O)O)NC(=O)[C@@H](N)C(C)C)C(=O)N[C@@H](Cc1ccc(O)cc1)C(=O)N[C@@H](CC(N)=O)C(=O)N[C@@H](CCCN)C(N)=O; assay = cELISA, total compound; test system = CD-1 mice, female, plasma; conditions = subcutaneous, 4.34 µmol/kg, single dose; endpoint = elimination rate constant; value = 0.016 min⁻¹
Compound = CCN(CCCCOc1ccc(CCC(=O)N2CCC(Cc3ccccc3)CC2)cc1OC)Cc1ccccc1; test system = Sprague-Dawley rats, both sexes, faeces; conditions = oral gavage, 25 mg/kg, 12 to 24 h; endpoint = excreted amount; value = 22300 ± 7120 ng
Compound = C[C@H](O)[C@@H](NC(=O)[C@H]1CCCN1C(=O)[C@@H](CCCCN)NC(=O)[C@@H](CO)NC(=O)[C@@H](Cc1ccc(O)cc1)NC(=O)[C@@H](CC(N)=O)NC(=O)CCOCCOCCOCCNC(=O)CN1CCN(CC(=O)O)CCN(CC(=O)O)CCN(CC(=O)O)CC1)C(=O)N[C@H](CC(=O)O)C(=O)N[C@H](CCCNC(=N)N)C(=O)N[C@H](CCC(N)=O)C(=O)N[C@H](Cc1ccc(O)cc1)C(=O)N[C@H](Cc1c[nH]cn1)C(=O)N[C@H](Cc1ccccc1)C(N)=O [gallium-68 labelled]; test system = BALB/c nude mice U-87 MG tumour, pancreas; conditions = intravenous, 1.85 MBq, 0.5 h, radiolabelled; endpoint = tissue uptake; value = 0.77 ± 0.75 %ID/g
Compound = O=C1NC2(CC2)COc2ncc(F)cc2[C@H]2COCCN2c2ccn3ncc1c3n2; test system = Sprague-Dawley rat, male, blood; conditions = oral, 2.5 mg/kg/day, 4 weeks, end of recovery, subacute toxicity; endpoint = mean corpuscular haemoglobin concentration; value = 320 ± 6 g/L
Compound = NC1CCN(C(=O)Oc2ccc(C3CCCC4(C3)OOC3(O4)C4CC5CC(C4)CC3C5)cc2)CC1 (racemic); test system = male Sprague-Dawley rats, plasma; conditions = intravenous, 10 mg/kg; endpoint = MRT; value = ~10 h
Compound = CC[C@H](C)[C@H](NC(=O)[C@H](CCCCN)NC(=O)CNC(=O)[C@H](CC(C)C)NC(=O)[C@H](Cc1ccccc1)NC(=O)[C@H](CCCCN)NC(=O)[C@H](CO)NC(=O)[C@H](Cc1ccccc1)NC(=O)[C@H](Cc1c[nH]c2ccccc12)NC(=O)[C@H](CCC(N)=O)NC(=O)[C@@H](NC(=O)[C@H](Cc1ccccc1)NC(=O)CCCCCNC(=O)CN1CCN(CC(=O)O)CCN(CC(=O)O)CCN(CC(=O)O)CC1)C(C)C)C(=O)N[C@@H](CCC(=O)O)C(=O)N1CCC[C@H]1C(=O)N[C@@H](CC(=O)O)C(=O)N[C@H](C(=O)N[C@@H](CO)C(=O)N[C@@H](CCC(N)=O)C(=O)N[C@H](C(=O)N[C@@H](CCC(N)=O)C(=O)N[C@@H](CC(=O)O)C(=O)N1CCC[C@H]1C(=O)N[C@@H](CC(N)=O)C(=O)N[C@@H](CC(=O)O)C(=O)N[C@@H](CCC(N)=O)C(=O)N[C@@H](Cc1ccc(O)cc1)C(=O)N[C@@H](CCC(=O)O)C(=O)N1CCC[C@H]1C(=O)N[C@@H](Cc1ccccc1)C(=O)O)C(C)C)C(C)C [copper-64 labelled]; test system = C57BL/6 mice, heart; conditions = vehicle, intratracheal instillation; endpoint = tissue uptake; value = 1.09 ± 0.1 %ID/g
Compound = N#[11C]c1ccc(-c2csc(NN=C3CCCC3)n2)cc1; test system = C57BL/6 mice, male, bone; conditions = intravenous, 3 MBq, 30 min; endpoint = radioactivity uptake; value = 0.74 ± 0.13 %ID/g
Compound = CN1Cc2cc(Cl)ccc2-n2c(nnc2C2CCN(c3cccc([18F])n3)CC2)C1; assay = PET two-tissue compartment model; test system = rhesus monkey, hippocampus; conditions = intravenous, dose not given, 80 min scan, baseline scan; endpoint = total volume of distribution; value = 1.05 ± 0.29 mL/cm3
Compound = CC(C)C[C@H](NC(=O)[C@H](Cc1ccc(O)cc1)NC(=O)[C@H](Cc1c[nH]cn1)NC(=O)[C@H](CC(=O)O)NC(=O)[C@H](CC(C)C)NC(=O)[C@H](C)NC(=O)[C@H](CC(C)C)NC(=O)CNC(=O)CNC(=O)[C@@H](NC(=O)[C@@H](NC(=O)[C@H](CCCCN)NC(=O)CNC(=O)[C@@H](NC(=O)[C@H](CCCCN)NC(=O)[C@H](CCCCN)NC(=O)[C@H](C)NC(=O)[C@H](CCCCN)NC(=O)[C@H](CCCNC(=N)N)NC(=O)[C@H](Cc1ccccc1)NC(=O)[C@@H](NC(=O)[C@H](CO)NC(=O)[C@H](CCCCN)NC(=O)[C@H](Cc1c[nH]c2ccccc12)NC(=O)CN)C(C)C)C(C)C)[C@@H](C)O)C(C)C)C(N)=O; test system = zebrafish embryos 28 hpf, E3 medium; conditions = 1 h; endpoint = acute toxic concentration; value = 5 µM
Compound = Cc1ccc(O[C@H]2CCN(C)C2)cc1C(=O)N[C@H](C)c1cc(-c2cnn(C)c2)nc2ccccc12; target or system = Vero E6; conditions = 7.812 µM; endpoint = viability; value = 94.5% and 98.9% and 96.2%
Compound = CCCCCCCCCCCCCCCC(=O)N[C@@H](CCC(=O)NCCOCCOCCC(=O)NCCOCCOCCC(=O)NCCCC[C@H](NC(=O)[C@H](CC(=O)O)NC(=O)[C@H](CC(C)C)NC(=O)[C@H](Cc1ccc(O)cc1)NC(=O)[C@H](CCCCN)NC(=O)[C@H](CO)NC(=O)[C@H](Cc1ccc(O)cc1)NC(=O)[C@H](CC(=O)O)NC(=O)[C@H](CO)NC(=O)[C@@H](NC(=O)[C@H](Cc1ccccc1)NC(=O)[C@@H](NC(=O)CNC(=O)[C@H](CCC(N)=O)NC(=O)[C@@H](CO)NC(=O)[C@@H](N)Cc1c[nH]cn1)[C@@H](C)O)[C@@H](C)O)C(=O)N[C@@H](CCCNC(=N)N)C(=O)N[C@@H](CCCNC(=N)N)C(=O)N[C@@H](C)C(=O)N[C@@H](CCC(N)=O)C(=O)N[C@@H](CC(=O)O)C(=O)N[C@@H](Cc1ccccc1)C(=O)N[C@H](C(=O)N[C@@H](CCC(N)=O)C(=O)N[C@@H](Cc1c[nH]c2ccccc12)C(=O)N[C@@H](CC(C)C)C(=O)N[C@@H](CC(C)C)C(=O)N[C@@H](CC(N)=O)C(=O)N[C@H](C(=O)NCC(=O)NCC(=O)N1CCC[C@H]1C(=O)N[C@@H](CO)C(=O)N[C@@H](CO)C(=O)NCC(=O)N[C@@H](C)C(=O)N1CCC[C@H]1C(=O)N1CCC[C@H]1C(=O)N1CCC[C@H]1C(=O)N[C@@H](CO)C(N)=O)[C@@H](C)O)C(C)C)C(=O)O; test system = rhesus monkey, plasma; conditions = subcutaneous, 20 µg/kg, single dose; endpoint = AUC(0-inf); value = 83 ng·h/mL
Compound = Cc1ccc(N2CC3CCC(C2)N3C)cc1C(=O)N[C@H](C)c1cc(-c2cnn(C)c2)nc2ccccc12; target or system = African green monkey cells; conditions = 31.25 µM; endpoint = viability; value = 53.3%
Compound = O=C(O)/C=C\c1ccc2occc2c1O[C@@H]1O[C@H](CO)[C@@H](O)[C@H](O)[C@H]1O; assay = post-procedure stability; test system = rat plasma; conditions = 1000 ng/mL, 3 h, room temperature; endpoint = accuracy; value = 112%

Excerpt of the above:
Compound = C=Cc1c(C)c2cc3nc(c(CC(=O)O)c4[nH]c(cc5nc(cc1[nH]2)C(C)=C5CC)c(C)c4C(=O)O)[C@@H](CCC(=O)NCCCC[C@H](NC(C)=O)C(=O)N[C@@H](Cc1ccccc1)C(=O)N[C@@H](Cc1ccccc1)C(=O)N[C@H](C(=O)N[C@@H](CC(C)C)C(=O)N[C@@H](CCCCN)C(=O)N[C@@H](CO)C(=O)NCC(=O)N[C@@H](CCC(N)=O)C(=O)NCC(=O)N[C@@H](Cc1ccc(O)cc1)C(=O)N[C@@H](CCCNC(=N)N)C(=O)N[C@@H](Cc1c[nH]c2ccccc12)C(=O)N[C@@H](CC(=O)O)C(=O)N[C@@H](CO)C(=O)N[C@@H](Cc1ccc(O)cc1)C(=O)N[C@@H](CCCNC(=N)N)C(=O)N[C@@H](Cc1c[nH]c2ccccc12)C(=O)N[C@@H](Cc1c[nH]cn1)C(=O)N1CCC[C@H]1C(=O)N[C@@H](CO)C(=O)N[C@@H](CS)C(=O)N[C@@H](C)C(=O)N[C@@H](CS)C(=O)NCC(=O)NCC(=O)N[C@@H](CO)C(=O)N[C@@H](CCCCN)C(N)=O)C(C)C)[C@@H]3C; test system = mouse, 4T1 breast tumour, serum; conditions = concentration not given, 21 days after single dose; endpoint = TNF level; value = 40.7 pg/mL and 41.2 pg/mL and 36.6 pg/mL
Compound = CC[C@H](C)[C@H](NC(=O)[C@H](CCCN)NC(=O)[C@H](CCCNC(=N)N)NC(=O)[C@@H]1CCCN1C(=O)[C@@H]1CCCN1C(=O)[C@H](CCCNC(=N)N)NC(=O)[C@@H]1CCCN1C(=O)[C@H](CCCNC(=N)N)NC(=O)[C@@H]1CCCN1C(=O)[C@H](CC(C)C)NC(=O)[C@H](Cc1ccc(O)cc1)NC(=O)[C@@H]1CCCN1C(=O)[C@@H]1CCCN1C(=O)[C@H](CCCCN)NC(=O)[C@H](CC(=O)O)NC(=O)[C@@H](N)C(C)C)C(=O)N[C@@H](Cc1ccc(O)cc1)C(=O)N[C@@H](CC(N)=O)C(=O)N[C@@H](CCCN)C(N)=O; assay = cELISA, total compound; test system = CD-1 mice, female, plasma; conditions = subcutaneous, 4.34 µmol/kg, single dose; endpoint = elimination rate constant; value = 0.016 min⁻¹
